Measurements pooled from the literature.
Parts stem from different laboratories: compare values within a part only. Changes are numbered by the printed parent chain.

Sample 1 — method: DHFR PCA, dose-response; matrix: yeast; together with: (+)-ABA, dose series; direction: lower = more sensitive; measurement: ABA EC50
Target: ABI1, truncated, D143A, DHFR fusion (Arabidopsis thaliana, UniProt P49597)
Setting: Hill fit, not affinity, not high confidence
Parent: PYL1, truncated, DHFR fusion (Arabidopsis thaliana, UniProt Q8VZS8); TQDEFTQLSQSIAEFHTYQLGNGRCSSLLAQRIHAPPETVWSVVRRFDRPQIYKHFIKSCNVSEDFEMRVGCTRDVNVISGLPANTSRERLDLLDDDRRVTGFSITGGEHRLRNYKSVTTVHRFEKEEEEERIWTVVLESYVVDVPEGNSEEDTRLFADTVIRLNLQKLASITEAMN
D75P: 125 µM
Y115K: 0.0619 µM
L91S: 1860 µM
E89W: 2.06 µM
V121N: 9.45 µM
L169A: 840 µM
P146I: 325 µM
E89V: 53.3 µM
R74V: 0.0364 µM
A84L: 0.512 µM
V40N: 0.686 µM

Sample 2 — target: CCND3, cyclin fold, Cln2 fusion (human); method: yeast growth competition, sequencing; matrix: yeast; setting: weak parent motif; reference: not given; direction: higher = stronger binding; measurement: normalised enrichment score
Parent: SCAPER docking peptide (human); SNARRSLNFGGST; partner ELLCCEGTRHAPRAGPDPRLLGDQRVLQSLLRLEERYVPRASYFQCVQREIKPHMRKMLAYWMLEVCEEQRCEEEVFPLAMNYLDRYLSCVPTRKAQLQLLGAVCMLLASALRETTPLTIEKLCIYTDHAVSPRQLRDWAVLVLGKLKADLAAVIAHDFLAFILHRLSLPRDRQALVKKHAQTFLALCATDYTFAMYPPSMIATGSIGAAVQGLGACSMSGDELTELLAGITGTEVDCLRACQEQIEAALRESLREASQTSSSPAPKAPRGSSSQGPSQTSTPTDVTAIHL
R4H: 0.0876
S1G: 0.101
F9W: 0.2
G10C: 0.142
N2M: 0.0394
N8F: 0.104
L7I: 0.12
N2C: 0.0497
R4A: 0.116
T13H: 0.0644
G10I: 0.105
A3L: 0.0903
R5A: 0.0815
F9P: 0.0966
S6L: 0.0781
G10E: 0.065
F9A: 0.118

Sample 3 — method: protein-binding microarray; molecule type: double-stranded DNA, one strand shown; matrix: in vitro; concentration: 2200 nM top; setting: 60-bp whole probe; together with: salmon DNA 0.4 mg/ml; reference: random background probes; direction: higher = stronger binding; measurement: fitted relative affinity; constant ends, left off below: GCCTAGCAC … GTCTTGATTCGCTTGACGCTGCTG
Target: Interferon regulatory factor 7, full length, phosphomimetic (IRF7, Homo sapiens, UniProt Q92985, residues 1-503, S471D/S472D/S475D/S476D/S477D/S483D/S484D/S487D)
Construct (chain): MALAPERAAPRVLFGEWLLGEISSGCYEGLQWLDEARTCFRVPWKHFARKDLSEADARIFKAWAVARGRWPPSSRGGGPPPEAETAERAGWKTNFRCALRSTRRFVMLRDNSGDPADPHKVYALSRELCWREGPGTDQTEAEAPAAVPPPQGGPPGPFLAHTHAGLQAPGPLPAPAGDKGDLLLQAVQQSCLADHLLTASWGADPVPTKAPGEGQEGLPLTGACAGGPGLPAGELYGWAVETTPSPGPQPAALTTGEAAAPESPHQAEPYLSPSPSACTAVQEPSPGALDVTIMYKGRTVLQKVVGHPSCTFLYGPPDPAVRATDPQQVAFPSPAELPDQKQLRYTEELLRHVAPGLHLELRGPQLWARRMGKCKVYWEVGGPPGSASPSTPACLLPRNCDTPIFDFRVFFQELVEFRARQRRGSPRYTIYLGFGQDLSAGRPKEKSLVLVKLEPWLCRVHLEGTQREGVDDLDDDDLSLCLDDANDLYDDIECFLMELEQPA
TTAGATCTCCTTCTCCTTTAGTGCTAG: 1.18 z-score
TTAAATTTCAGTTCCGATTAGTGCTAG: 2.04 z-score
TTTCCTCTGTCATTTTCTCTGTGCTAG: 3.72 z-score
ATTTTTTTCTAATTGAAATCGTGCTAG: 1.73 z-score
GGGAACTTAAACCTCTAAAGGTGCTAG: -0.968 z-score
TTAGGTATCGGGACTGGGTAAGTGCTA: -0.468 z-score
TCACTTTCCTTCTTGATACTGTGCTAG: 5.82 z-score
GGCGATCTCAGTATCGAGACGTGCTAG: -0.49 z-score
TTAGGTCTCTGTATCGGTTAGTGCTAG: 0.66 z-score
TCATTTTCCCCCCTCACACTGTGCTAG: 3.06 z-score
TTAGGTATCAGACTGGGTTAGTGCTAG: -0.106 z-score
TTAGATTTCAGTCACGATTAGTGCTAG: 0.156 z-score
TTAGGTCTCGGGATCGGTTAGTGCTAG: 0.239 z-score
GACGAAATGAGTTTCGAGACGTGCTAG: 2.2 z-score
TCACCACTCCAGTTCTGACTGTGCTAG: 1.4 z-score
TCACCTAACATGCTTCGAACTGTGCTA: 1.03 z-score
TTAGGATTGGACACTGGGTTAGTGCTA: -0.379 z-score
TTCATTATTGCTTCCTCTTTGTGCTAG: 2.67 z-score
GACGGTTTCGACTTTCGGAACGTGCTA: 8.59 z-score

Sample 4 — method: protein-binding microarray; molecule type: double-stranded DNA, one strand shown; matrix: in vitro; concentration: not given; direction: higher = stronger binding; measurement: E-score
Target: Transcription factor Sp1 (SP1, Homo sapiens, UniProt P08047, residues 1-785, full length assumed)
UniProt P08047, sequence (whole entry, looked up): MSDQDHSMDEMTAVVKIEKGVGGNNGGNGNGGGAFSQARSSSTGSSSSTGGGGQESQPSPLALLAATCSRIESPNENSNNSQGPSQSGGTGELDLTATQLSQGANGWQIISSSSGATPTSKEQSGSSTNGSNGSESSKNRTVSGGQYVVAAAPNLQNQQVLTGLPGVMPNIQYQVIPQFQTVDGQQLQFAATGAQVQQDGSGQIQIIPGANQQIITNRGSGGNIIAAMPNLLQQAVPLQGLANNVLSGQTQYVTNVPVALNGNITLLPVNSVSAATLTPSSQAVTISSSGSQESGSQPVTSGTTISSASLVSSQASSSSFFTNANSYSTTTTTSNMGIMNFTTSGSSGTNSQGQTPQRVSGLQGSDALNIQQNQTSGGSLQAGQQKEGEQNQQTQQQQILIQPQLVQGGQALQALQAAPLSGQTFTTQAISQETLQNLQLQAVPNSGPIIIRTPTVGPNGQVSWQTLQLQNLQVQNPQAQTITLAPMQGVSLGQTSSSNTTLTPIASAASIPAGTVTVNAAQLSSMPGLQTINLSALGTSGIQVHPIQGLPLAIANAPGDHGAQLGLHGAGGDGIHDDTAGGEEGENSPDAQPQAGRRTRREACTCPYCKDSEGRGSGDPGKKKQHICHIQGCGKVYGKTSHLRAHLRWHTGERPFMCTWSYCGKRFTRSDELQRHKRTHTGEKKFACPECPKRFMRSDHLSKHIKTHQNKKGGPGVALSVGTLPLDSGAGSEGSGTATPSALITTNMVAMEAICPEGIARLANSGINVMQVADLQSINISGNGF
Setting: k-mer, scored over probes, only values ≥0.25
GTATTATA: 0.259
ATGACGCA: 0.265
CATTCATA: 0.316
AATATTAA: 0.276
CCCCGTAC: 0.274
CCGCCCCG: 0.482
CAATACCC: 0.262
CACGAACA: 0.261
AGTATATA: 0.348
GGTTATAA: 0.281
CACACCTA: 0.301

Sample 5 — method: EMSA with sequencing; molecule type: double-stranded DNA, one strand shown; matrix: in vitro; concentration: 10 and 20 nM; reference: negative control set to 0; direction: higher = stronger binding; measurement: normalised bound fraction
Target: Hepatocyte nuclear factor 3-alpha (Foxa1, Mus musculus, UniProt P35582, residues 1-468, full length assumed)
UniProt P35582, sequence (whole entry, looked up): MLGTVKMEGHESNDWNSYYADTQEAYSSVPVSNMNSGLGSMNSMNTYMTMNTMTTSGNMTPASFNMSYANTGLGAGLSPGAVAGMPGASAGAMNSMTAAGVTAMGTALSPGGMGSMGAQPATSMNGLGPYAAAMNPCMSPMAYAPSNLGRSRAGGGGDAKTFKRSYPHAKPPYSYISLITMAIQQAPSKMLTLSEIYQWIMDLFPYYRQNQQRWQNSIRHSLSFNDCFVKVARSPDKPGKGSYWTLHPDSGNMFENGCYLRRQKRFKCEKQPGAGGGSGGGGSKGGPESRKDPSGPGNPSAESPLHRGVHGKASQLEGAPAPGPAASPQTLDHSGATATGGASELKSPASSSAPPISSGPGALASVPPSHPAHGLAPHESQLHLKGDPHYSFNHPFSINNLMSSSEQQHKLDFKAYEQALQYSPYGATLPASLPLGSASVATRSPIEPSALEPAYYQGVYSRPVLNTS
Setting: whole designed probe, mean of two concentrations, ends assumed
Constant ends, left off below: GTGAGCGGTGCCCATTGATGGGGAAC … TTTCACTGGGATCGTGGGGAC
ACCTCATCTCAGGTATTTTCTGATGACGTATGTCTCAAGAAGAGTTCCTAGTAGCATCTGTGGTACCAGTTATGGAATTCTGAGTTTCTCTACTGTTGACTTTTTCAAAGATCAGGGATCCAGGTCTAGCATCCTCACAATTTGTCTAAGTGCTGAATGAATGGAGTACTTAGAAAAGGCCTCTATTTAAGAT: 0.164 ratio
ATTGAAGAACAAACAGCTATTGCCCAGCCCAGAAAGAGCCACCTCTTGGTAACTCCTGTGTGTGACATAAACTCATACCAGCAGTATCACAGAGCAATCTGCATAAACTCTGAATGCCACTCACAAATTGCTTTGCCAATAATAGTTCCAGGATGTACTGTTCTTCCAATGGGCTTAACAAACATTTCGATGC: 0.126 ratio
CATCTCGGCCTCCATAACTGCTGGGATTACAAGCATGAGCCACTATACCTGGCTGAAATTTTTTAACATACTAGTATTTGTGTAATTTAAAAAATAATCTGGCTGGGCACGGTGGCTCATGCCTGTAATCCCAGCACTTTGGGAGGCCGAGGCAGGTGGATCCTGAGGTCAAAAGATAGAGACCGTCCTGGCC: 0.0674 ratio
ACTCTGTTCATATGGCACGTTTCCTGCATATCATTCAGCCATTCTTCTCTGACACGTTCTGAGACGGAGACTTACAGGAAATACAGGCCCTGTGTAATCTCTTGAAACACAGACAAGCAAATACCCACGAGTCTTTATCGCTCTTGATTCTTGGCACAGTTCCTTGCATGTGGTAGAGGCCTAACAGTTTTTC: -0.000604 ratio
ATAGACTCAATGAATCATCCCATTTTAGTTTTTAAGCTAAGCTAAGAAATACCATTGTTGAACTGTACTCAATTCAACAAACATGGATATAAATGTAAACAAGAAAATGAGACTACTTTCAGTGAGAATGCACACTATAATTCATAAGGTAAGTCTAGCTCAAATACTGAAAAGTCAACCATTTGGGATGAAA: 0.383 ratio

Some of these lines once more (sample 4):
GTATTATA: 0.259
CACGAACA: 0.261
AGTATATA: 0.348
GGTTATAA: 0.281
CCGCCCCG: 0.482
CATTCATA: 0.316
CCCCGTAC: 0.274
CACACCTA: 0.301
CAATACCC: 0.262
